Experimental data of several laboratories.
Compare with care: the assays were run in different laboratories. Values joined by “and” are separate records of one study, mostly repeats; a detail may differ.
DRD2: D(2) dopamine receptor (DRD2, Homo sapiens, UniProt P14416)

Compound = O=C1c2ccccc2CCCN1CCCCN1CCN(c2cccc(Cl)c2Cl)CC1; target = DRD2; test = ligand displacement, radioligand; setting = 10 µM; measurement = inhibition; result = 99%
Compound = CS(C)(=O)=Nc1ccc(-c2ccc(-c3nc4cc(O[C@@H]5CO[C@H]6[C@@H]5OC[C@H]6O)[nH]c4cc3F)cc2)cc1; target = DRD2; test = calcium signal, antagonist; setting = 10 µM; measurement = inhibition; result = 23%
Compound = CCN(CC)CCOc1ccc(-c2nnn(Cc3ccc(OC)cc3)c2N)cc1; target = DRD2; test = radioligand binding; system = HEK293; setting = 10 µM, safety profiling; measurement = inhibition; result = 5.83%
Compound = COc1ccc(F)cc1S(=O)(=O)Nc1cnc2c(c1)C(=O)NCCO2; target = DRD2; test = ligand displacement, radioligand; setting = 10 µM; measurement = inhibition; result = 0%
Compound = CCOC(=O)[C@](CC)(CCCSCCOCCOCCNC(=O)c1ccc(-c2c3ccc(=N)c(S(=O)(=O)O)c-3oc3c(S(=O)(=O)O)c(N)ccc23)c(C(=O)O)c1)NC(=O)c1ccc(C2CC2)c(Cc2ccc(F)cc2)n1; target = DRD2; test = specific binding, agonist radioligand binding; setting = 10 µM; measurement = inhibition; result = -11%
Compound = O=C(O)c1ccc(-c2nc(-c3ccccc3Cl)c3sccn23)cc1; target = DRD2; test = radioligand binding, safety screen panel; setting = 10 µM; scale = baseline: control; measurement = specific binding; result = 94.4% and 101%
Compound = Cc1cc(-c2ccc3ccccc3c2)nnc1NCCN1CCN(C)CC1; target = DRD2; test = antagonist; setting = 10000 nM; scale = baseline: control; measurement = activity; result = 0%
Compound = C/C(=N\OCCCN1CCCCC1)c1ccc(C(F)(F)F)cc1; target = DRD2; test = antagonist, cAMP; setting = 10 µM; measurement = inhibition; result = 55.5%
Compound = Cc1sc2c(c1C)C(c1ccc(Cl)cc1)=NC(CC(=O)OC(C)(C)C)c1nnc(C)n1-2 (stereo not drawn); target = DRD2; test = specific binding, antagonist radioligand binding; setting = 1 µM; measurement = inhibition; result = -2%
Compound = CN[C@@H]1[C@H](O)[C@H](NC)[C@H]2O[C@]3(O)[C@H](O[C@@H]2[C@H]1O)O[C@H](C)C[C@H]3NC(=O)Cc1ccc(Cl)cn1; target = DRD2; setting = 10 µM; measurement = inhibition; result = -1%
Compound = Cc1cc(Nc2nc(C[C@@]3(C(=O)O)CCN(Cc4cccc(Cl)c4F)[C@H](C)C3)cc(C)c2F)[nH]n1; target = DRD2; test = inhibitor; setting = 10 µM; measurement = inhibition; result = 4.9%
Compound = COc1ccccc1N1CCN(CCCCN2CCCc3ccccc3C2=O)CC1; target = DRD2; test = ligand displacement, radioligand; setting = 10 µM; measurement = inhibition; result = 96.9%
Compound = Cc1ccc2c(n1)c(-c1cccc(S(C)(=O)=O)c1)c(C)n2C/C(F)=C/CN; target = DRD2; test = inhibitor, radioligand binding; setting = 10 µM; measurement = inhibition; result = 6%
Compound = CCN(CC)C(=O)[C@@H]1C=C2c3cccc4c3c(cn4C(=O)c3ccco3)C[C@H]2N(C)C1; target = DRD2; test = radioligand binding; setting = 10 µM; measurement = inhibition; result = < 50%
Compound = N[C@H](C(=O)N1CCCC1)C1CCN(c2nccc3c(-c4ncc(Cl)cc4Cl)cccc23)CC1; target = D(2) dopamine receptor, short isoform (DRD2, Homo sapiens, UniProt P14416); test = functional response, antagonist; setting = 10 µM; measurement = inhibition; result = 4%

Excerpt of the above:
Compound = COc1ccccc1N1CCN(CCCCN2CCCc3ccccc3C2=O)CC1; target = DRD2; test = ligand displacement, radioligand; setting = 10 µM; measurement = inhibition; result = 96.9%
Compound = CCN(CC)CCOc1ccc(-c2nnn(Cc3ccc(OC)cc3)c2N)cc1; target = DRD2; test = radioligand binding; system = HEK293; setting = 10 µM, safety profiling; measurement = inhibition; result = 5.83%
